Assay results from different studies.
Protocols differ between the studies behind these lines. Several values in a cell are separate wells, animals, samples, runs or records. Numbers after ± are the reported error.

| SMILES | test | test system | setting | half-life |
| --- | --- | --- | --- | --- |
| CCC1(CC)CC(=O)N(C2CCOc3ccc(C(=O)NC4CC(C)(C)Oc5ccccc54)cc32)C(=N)N1 (stereo not shown) | – | Wistar Han rat male, plasma | – | 5.9 ± 2.7 h |
| CC[C@H](C)[C@@H](C(=O)N[C@@H](CC(C)C)C(=O)N[C@@H](CO)C(=O)N[C@@H](CO)C(=O)N[C@H](C(=O)N[C@@H](CCC(=O)O)C(=O)N[C@H](C(=O)NCC(=O)N[C@@H](CO)C(=O)N[C@@H](CC(N)=O)C(=O)N[C@H](C(=O)N1C[C@H](O)C[C@H]1C(N)=O)[C@@H](C)O)C(C)C)[C@@H](C)O)N(C)C(=O)[C@H](C)NC(=O)CN(C)C(=O)[C@H](Cc1ccccc1)NC(=O)[C@H](CO)NC(=O)[C@H](CO)NC(=O)[C@H](CCCNC(=N)N)NC(=O)[C@H](CCC(N)=O)NC(=O)[C@H](CC(C)C)NC(=O)[C@H](Cc1ccccc1)NC(=O)[C@H](CCCC(=O)O)NC(=O)[C@H](C)NC(=O)[C@H](CC(C)C)NC(=O)[C@H](CCCNC(=N)N)NC(=O)[C@H](CCC(=O)O)NC(=O)[C@@H](NC(=O)[C@H](C)NC(=O)[C@@H]1CSSC[C@H](NC(=O)[C@H](CCCNC(=N)N)NC(=O)CC[C@H](NC(=O)CCCCCCCCCCCCCCCCCCC(=O)O)C(=O)O)C(=O)NCC(=O)N[C@@H]([C@@H](C)O)C(=O)N[C@@H](C)C(=O)N[C@@H]([C@@H](C)O)C(=O)N1)[C@@H](C)O | – | Sprague-Dawley rat, lean male, plasma | subcutaneous, 30 nmol/kg single dose, vehicle pH 7.0 | > 30 h |
| C=C1C[C@]2(C(=O)OC)C=C(C(=O)Nc3cccc(C(=O)Nc4ccc(Nc5nccc(-c6cccnc6)n5)c(C)c4)c3)C(=O)[C@H]1C2 | – | Wistar rat male, blood plasma | 10 µM | 0.0407 h and 0.0721 h |
| O=C(NS(=O)(=O)c1cccs1)c1cc2ccccc2n1Cc1ccc(Br)c2ccccc12 | – | Sprague-Dawley rat, male, plasma | oral, 20 mg/kg | 1.48 h |
| O=C(O)/C=C\c1cc2ccoc2cc1O[C@@H]1O[C@H](CO)[C@@H](O)[C@H](O)[C@H]1O | – | rat, plasma | oral, 500 mg/kg Eu + 217 mg/kg Pc extract, dosed as combined Eu and Pc extracts | 2.59 ± 0.51 h |
| COc1ccc([C@@H]2CC(=O)c3c(O)cc(O[C@@H]4O[C@H](CO)[C@@H](O)[C@H](O)[C@H]4O[C@@H]4O[C@@H](C)[C@H](O)[C@@H](O)[C@H]4O)cc3O2)cc1O | LC-MS/MS | Sprague-Dawley rat, male, obese, plasma | oral, 100 mg/kg | 17.6 ± 5.67 h |
| C=C(NC(=O)c1csc(-c2nc3c(cc2O)-c2nc(cs2)C(=O)NC(C(C)O)C(=O)NC(=C(C)OC)c2nc(cs2)C(=O)NC2c4nc(cs4)C(=O)NC(COC(=O)c4c5c6c(cccc6n4O)COC(=O)C(OC4CC(C)(O)C(N(C)C)C(C)O4)C2OC5)c2nc-3cs2)n1)C(N)=O (stereo not shown) | – | Sprague-Dawley rat, both sexes, plasma | intravenous infusion, 6 mg/kg, multiple doses, day 7 | 7.16 h |
| CC[C@H](C)[C@H](NC(=O)[C@H](Cc1ccc(O)cc1)NC(=O)[C@@H](NC(=O)[C@H](CCCNC(=N)N)NC(=O)[C@@H](N)CC(=O)O)C(C)C)C(=O)N[C@@H](Cc1c[nH]cn1)C(=O)N1CCC[C@H]1C(=O)O | LC-MS/MS | Sprague-Dawley rats, both sexes, plasma | subcutaneous, 10 mg/kg/day, day 27 | 0.267 h |
| Cc1nc2cccc(OCC(C)(C)C(=O)NC(C)C)c2c(N)c1C(=O)[O-].[Na+] | – | male Sprague-Dawley rat, plasma | oral, 30 mg/kg | 1.33 h |
| OC1(C(F)(F)F)CCN(c2nc(Nc3ccnc(C(F)(F)F)c3)nc(-c3cccc(C(F)(F)F)n3)n2)C1 (stereo not shown) | – | Sprague-Dawley rat, both sexes, plasma | oral gavage, 5 mg/kg, day 1 | 15.2 ± 3.19 h |

Repeated from above:
| SMILES | test | test system | setting | half-life |
| --- | --- | --- | --- | --- |
| CC[C@H](C)[C@H](NC(=O)[C@H](Cc1ccc(O)cc1)NC(=O)[C@@H](NC(=O)[C@H](CCCNC(=N)N)NC(=O)[C@@H](N)CC(=O)O)C(C)C)C(=O)N[C@@H](Cc1c[nH]cn1)C(=O)N1CCC[C@H]1C(=O)O | LC-MS/MS | Sprague-Dawley rats, both sexes, plasma | subcutaneous, 10 mg/kg/day, day 27 | 0.267 h |
| O=C(NS(=O)(=O)c1cccs1)c1cc2ccccc2n1Cc1ccc(Br)c2ccccc12 | – | Sprague-Dawley rat, male, plasma | oral, 20 mg/kg | 1.48 h |
